Measurements of several laboratories.
Numbers after ± are the reported error.

Compound | assay | system | conditions | logD
CC(C)C[C@@H](NC(=O)[C@H](C)NC(=O)CNC(=O)[C@@H](NC=O)C(C)C)C(=O)N[C@@H](C)C(=O)N[C@@H](C(=O)N[C@H](C(=O)N[C@@H](C(=O)N[C@@H](Cc1c[nH]c2ccccc12)C(=O)N[C@H](CC(C)C)C(=O)N[C@@H](Cc1cccc2cc[nH]c12)C(=O)N[C@H](CC(C)C)C(=O)N[C@@H](Cc1c[nH]c2ccccc12)C(=O)N[C@H](CC(C)C)C(=O)N[C@@H](Cc1c[nH]c2ccccc12)C(=O)NCCO)C(C)C)C(C)C)C(C)C | UHPLC retention on C18 |  |  | 6.49
NCCOCC(=O)N1CCCC(C(=O)NCc2nc(-c3ccc(-c4ccc(F)cc4)cc3)cs2)C1 (stereo not drawn) | shake flask | octanol/buffer | pH 7.4 | 1.4
CC(c1ccccc1)n1cc(-c2cc(F)cc3c(C#N)n[nH]c23)c(=O)[nH]c1=O (stereo not drawn) |  | octanol/water | pH 7.4 | 3.06
CCOC(=O)C(CC)(CCCSCCOCCOCCNc1ccc([N+](=O)[O-])c2nonc12)NC(=O)c1ccc(C2CC2)c(Cc2ccc(F)cc2)n1 (racemic) |  |  |  | 2.8
CC(c1ccc(F)cc1)n1cc(-c2cc(F)cc(F)c2)c(=O)[nH]c1=O (stereo not drawn) |  | octanol/water | pH 7.4 | 3.27
c1ccc(CCc2nnn[nH]2)cc1 |  |  | pH 7.4, second measurement | -0.22
C[C@]12CC[C@H]3[C@@H](CC=C4CC(O)CC[C@@]43CO)[C@@H]1CCC2O (stereo partly drawn) |  |  |  | 2.14
COc1ccc2c3c1O[C@H]1[C@@H](O)CC[C@@]4(O)[C@@H](C2)N(C)CC[C@]314 |  | octanol/borax buffer | 1 h, pH 9.22 | 0.69
Cn1c(=O)cnc2ccc(F)c(CCNC[C@H]3CN(c4cnc5c(n4)NC(=O)CO5)C(=O)O3)c21 | eLogD |  |  | 1.12
CC(C)C[C@@H](NC(=O)[C@H](C)NC(=O)CNC(=O)[C@@H](NC=O)C(C)C)C(=O)N[C@@H](C)C(=O)N[C@@H](C(=O)N[C@H](C(=O)N[C@@H](C(=O)N[C@@H](Cc1c[nH]c2ccccc12)C(=O)N[C@H](CC(C)C)C(=O)N[C@@H](Cc1cc2ccccc2[nH]1)C(=O)N[C@H](CC(C)C)C(=O)N[C@@H](Cc1c[nH]c2ccccc12)C(=O)N[C@H](CC(C)C)C(=O)N[C@@H](Cc1c[nH]c2ccccc12)C(=O)NCCO)C(C)C)C(C)C)C(C)C | UHPLC retention on C18 |  |  | 6.29
CCCCC1CNC2CCc3ccc(OC)cc3C12.Cl (racemic) |  | octanol/aqueous buffer | pH 7.4 | 1.81
O=C(O)CCc1ccccc1 |  |  | pH 7.4 | -0.49
CN1C(=O)Cc2ccc(F)c(CCNCC[C@H]3CN(c4ccc5c(n4)NC(=O)CO5)C(=O)O3)c21 | eLogD |  |  | 0.96
Fc1ccc(N2CCNCC2COc2ccc3c(c2)OCO3)cc1 (stereo not drawn) | experimental partition |  | pH 7.4 | 2.1 ± 0.04
CS(=O)(=O)NC(=O)NCc1ccccc1 |  |  | pH 7.4, first measurement | -1.19
Cc1nc([C@@](C)(CC2CC2)NC(=O)c2cc(OCC(F)(F)F)c(C3CC3)cn2)no1 |  |  | pH 7.4 | 3.94 ± 0.07
CN1CC[C@]23c4c5ccc(O)c4O[C@H]2[C@@H](O)C=C[C@@]3(O)[C@H]1C5 |  | octanol/buffer | 1 h, pH 7.4 | -0.93
O=C1NC(=O)C(Cc2ccccc2)S1 (stereo not drawn) |  |  | pH 7.4, second measurement | 1.04

A few entries again:
Compound | assay | system | conditions | logD
CC(c1ccc(F)cc1)n1cc(-c2cc(F)cc(F)c2)c(=O)[nH]c1=O (stereo not drawn) |  | octanol/water | pH 7.4 | 3.27
c1ccc(CCc2nnn[nH]2)cc1 |  |  | pH 7.4, second measurement | -0.22
